Measurements of several laboratories.
Each line is one published result; not all experiments were run side by side. “And” joins repeats or separate records; there may be more than shown. ± gives the spread as reported. Values after ≈ are worked out from the molar mass of the structure shown.

CCN(CC)C(=O)Oc1ccc(C(=O)Nc2cccc3cc[nH]c23)cc1  charge transfer (NMDA receptor EPSC, inhibitor, whole-cell patch clamp; subthalamic nucleus neurons, rat, subthalamic nucleus slices; 10 µM; reference: control): 45 ± 2.8%
CC(C)Oc1ccc2nc3ccc(=O)cc-3oc2c1  MIC90 (Mycobacterium tuberculosis; mc2 6206 PA-824-resistant ddn mutant; 7 days): 69 µM (≈ 17.6 µg/mL)
C#Cc1ccc2c(c1)C(c1ccccc1F)=N[C@H](C)c1c(-c3nc(C(C)C)no3)ncn1-2  inhibition (sigma-2 receptor; radioligand binding; concentration not given, primary screen, added: [3H]ditolylguanidine): > 50%
CC#C/C(=N\OC[C@H]1COCCN1)c1ccc2ncnc(Nc3ccc(OCc4cccc(F)c4)c(Cl)c3)c2c1  IC50 (MDA-MB-453; cell growth, WST-8; 72 h): 48.6 ± 3.1 nM
CCc1nc(N)nc(N)c1C#CCc1cc(OC)cc(-c2ccc(C(=O)O)cc2)c1  MIC (Staphylococcus aureus; MRSA isolate UCH 127): 5 µg/mL (≈ 12.4 µM)
CSc1nc(Cl)cc(Sc2nnc(-c3cc(C(F)(F)F)cc(C(F)(F)F)c3)[nH]2)n1  MIC (Klebsiella pneumoniae; BARB 105; added: polymyxin B nonapeptide 25 µg/mL): 47.1 µg/mL (≈ 99.8 µM)
O=c1ccc2nc3ccc(OCC4CCCCC4)cc3oc-2c1  MIC90 (Mycobacterium tuberculosis; mc2 6206 bedaquiline-resistant MmpL5 regulator mutant; 7 days): 83 µM (≈ 25.7 µg/mL)
O=C(C1CC1)N1CC2CC(C1)N2  contralateral forelimb use (limb use asymmetry test; rat, 6-OHDA lesion; dose not given, 60 min after L-dopa, 5 min test period, added: L-dopa): 51.3 ± 16.5%
c1ccc(Nc2cccc3ccccc23)cc1  Kd (Manis javanica OBP3 Y81A; binding, fluorescence binding; added: 1-NPN probe): 1460 ± 380 nM
C[C@H]1COc2c(N3CCN(C)CC3)c(F)cc3c(=O)c(C(=O)O)cn1c23  CC3 (Staphylococcus aureus topoisomerase IV GrlA S81Y; DNA cleavage): 15 µM
Cc1cc(N(CCCl)CCCl)ccc1C(=O)O  IC50 (A498; cell growth, inhibitor, MTT): 6.57 µg/mL
CCOC(=O)OCOc1c(-c2ccc(Oc3ccc(OC(F)(F)F)cc3)cc2)c(C)nc2cc(OC)c(Cl)cc12  non-recrudescence dose (Plasmodium yoelii; mouse; oral, 4 days, Peters test): 1 mg/kg/day
CCCCCCC1c2ccc(O)cc2Oc2cc(O)ccc21  MIC (Escherichia coli; MC4100; added: PMBN 25 µg/mL): 0.9 µg/mL (≈ 3.02 µM)
COCCOc1ccc2nc3ccc(=O)c(I)c-3oc2c1  MIC90 (Mycobacterium tuberculosis; mc2 6206 bedaquiline-resistant MmpL5 regulator mutant; 7 days): > 256 µM
Oc1ccc(C2NCCc3c2[nH]c2ccc(Cl)cc32)cc1O (stereo not shown)  IC50 (dengue virus 2; viral replication, plaque reduction; NGC; bound stated in text): ≤ 1000 nM
O=c1ccc2nc3ccc(OCc4ccccc4)cc3oc-2c1I  MIC90 (Mycobacterium tuberculosis; mc2 6206 PA-824-resistant ddn mutant; 7 days): 96 µM (≈ 41.2 µg/mL)
CC[C@H](C)[C@@H]1NC(=O)[C@H](CCC(=O)O)NC(=O)[C@@H]2CCCN2C(=O)[C@H](Cc2c[nH]cn2)NC(=O)[C@H](CC(=O)O)NC(=O)[C@H](Cc2ccc(O)cc2)NC(=O)[C@H](CC(N)=O)NC(=O)[C@@H]2CSSC[C@@H]3NC(=O)CNC(=O)CNC(=O)CNC(=O)[C@H](C)NC(=O)[C@H](C)NC(=O)CNC(=O)CNC(=O)[C@H](CSSC[C@H](NC3=O)C(=O)N[C@@H](CO)C(=O)N[C@@H](CC(=O)O)C(=O)N3CCC[C@H]3C(=O)N[C@@H](CCCNC(=N)N)C(=O)N2)NC1=O  inhibition (Cav2.1 human L1852T; Ba2+ current; 200 nM): 7.2 ± 1.4%
CCc1nc(N)nc(N)c1C#CCc1cc(OC)c(OC)c(-c2ccncc2)c1  MIC (Staphylococcus aureus; MRSA clinical isolate dfrA): > 10 µg/mL
O=c1ccc2nc3ccc(OCC4CCOCC4)cc3oc-2c1  MIC90 (Mycobacterium tuberculosis; mc2 6206 clofazimine-resistant fbiC mutant; 7 days): 225 µM (≈ 70.1 µg/mL)
Cc1c(N2CC[C@@H](CN)C2)c(F)cc2c(=O)n(N)c(=O)n(C3CC3)c12  maximal DNA cleavage (Staphylococcus aureus topoisomerase IV GrlA S81F): 39.5%
Cc1ccc(S(=O)(=O)N(C)CC(=O)N(Cc2ccc(C3CCCCC3)cc2)c2ccc(C(=O)O)c(O)c2)cc1  tumour growth (MDA-MB-231 xenograft, athymic nude mouse; intravenous, 3 mg/kg, 17 days, every 2-3 days; reference: vehicle): decreased
CCC(C)C1NC(=O)/C(=C(/C)O)C1=O (stereo not shown)  IC50 (plasma membrane H+-ATPase (Spinacia oleracea); ATP hydrolysis, inhibitor; plasma membrane fraction): 680 nM and 700 nM
CC1CCC2(CC1)OOCOCOOC1(CCC(C)CC1)OO2 (stereo not shown)  IC50 (K562; cytotoxicity, 7-AAD flow cytometry): 8120 ± 340 nM
Cc1ccc([C@H](CC(=O)O)NC(=O)Nc2c(O)c(C)cn(Cc3ccccc3Cl)c2=O)cc1  mice with prolonged survival (LAX7R xenograft, NSG mouse B-ALL model; dose not given, added: vincristine, dexamethasone, L-asparaginase): ~33%
O=c1ccc2nc3ccc(OCCO)cc3oc-2c1  MIC90 (Mycobacterium tuberculosis; mc2 6206 clofazimine-resistant fbiC mutant; 7 days): > 256 µM
CC(C)Cc1nnc2c(C(=O)NC3c4ccccc4-c4ccccc43)cccn12  MIC ratio (Escherichia coli; broth microdilution; MB5746 rpoZ Δ35-91 frameshift; reference: mutant over wild type): > 32
O=c1ccc2nc3ccc(OCc4ccc([N+](=O)[O-])o4)cc3oc-2c1I  MIC90 (Mycobacterium tuberculosis; mc2 6206 bedaquiline-resistant MmpL5 regulator mutant; 7 days): 2.3 µM (≈ 1.07 µg/mL)
O=[N+]([O-])c1cn2c(n1)OC[C@@H](OCc1ccc(OC(F)(F)F)cc1)C2  MIC50 (Mycobacterium bovis; BCG Tac^r7.1, thyA A148E missense; TA-C-resistant thyA mutant): 0.2 µM (≈ 0.0719 µg/mL)
C1CCCC2(CC1)OOCOCOOC1(CCCCCC1)OO2  IC50 (K562; cytotoxicity, 7-AAD flow cytometry): 7490 ± 210 nM
CCN1CCN(Cc2ccc(NC(=O)c3ccc(C)c(/C=C/c4cnc5[nH]ccc5c4OC)c3)cc2C(F)(F)F)CC1  log2 fold change (MAP3K20 (Homo sapiens, UniProt Q9NYL2); inhibitor, kinome profiling; human cells; 5 µM; reference: vehicle): 0.242
C(CCCCCN1COOC2(CCCCCC2)OOC2(CCCCCC2)OOC1)CCCCN1COOC2(CCCCCC2)OOC2(CCCCCC2)OOC1  early apoptotic cells (Jurkat; annexin V/7-AAD; 3.0 µM, 24 h): 32.9%
CCCCCCCCCCCCCC(=S)NCCCC[C@H](NC(=O)OCc1ccccc1)C(=O)Nc1cccc(O)c1  GI50 (HCT-116 pCDH overexpressing; anchorage-independent growth): 12100 ± 500 nM
O=c1ccc2nc3ccc(OCc4ccc([N+](=O)[O-])o4)cc3oc-2c1  MIC90 (Mycobacterium tuberculosis; mc2 6206 clofazimine-resistant fbiC mutant; 7 days): > 256 µM
U-69593  EC50 (opioid receptors, mouse; G protein activation, agonist; C57BL/6 wild-type mouse striatal membranes): 470 ± 140 nM

Repeated from above:
C1CCCC2(CC1)OOCOCOOC1(CCCCCC1)OO2  IC50 (K562; cytotoxicity, 7-AAD flow cytometry): 7490 ± 210 nM
O=C(C1CC1)N1CC2CC(C1)N2  contralateral forelimb use (limb use asymmetry test; rat, 6-OHDA lesion; dose not given, 60 min after L-dopa, 5 min test period, added: L-dopa): 51.3 ± 16.5%
O=c1ccc2nc3ccc(OCC4CCCCC4)cc3oc-2c1  MIC90 (Mycobacterium tuberculosis; mc2 6206 bedaquiline-resistant MmpL5 regulator mutant; 7 days): 83 µM (≈ 25.7 µg/mL)
O=c1ccc2nc3ccc(OCC4CCOCC4)cc3oc-2c1  MIC90 (Mycobacterium tuberculosis; mc2 6206 clofazimine-resistant fbiC mutant; 7 days): 225 µM (≈ 70.1 µg/mL)
